Published values collected from several papers.
Each line is one published result; not all experiments were run side by side. Several values in a cell are separate wells, animals, samples, runs or records. Numbers after ± are the reported error.
HRH3: Histamine H3 receptor (HRH3, Homo sapiens, UniProt Q9Y5N1)
HTR1D: 5-hydroxytryptamine receptor 1D (HTR1D, Homo sapiens, UniProt P28221)

SMILES | target or system | test | test system | conditions | scale | quantity | result
Ic1cccc2cnccc12 | L-type calcium channel (rat) | dihydropyridine site binding, radioligand binding | – | 10 µM | – | inhibition | 6%
CCS(=O)(=O)c1nc(S(=O)(=O)c2ccccc2Cl)c(N2CCN(C)C(=O)[C@H]2C)s1 | HRH3 | – | – | 10 µM | – | inhibition | 2.43%
CC(C)(Nc1nc(-c2ccccn2)nc2ccccc12)c1ccccn1 | panel of 300 kinases | TR-FRET binding | – | 1 µM, across all kinases | – | inhibition | < 50%
CN1CCN(c2cc(-c3ccncc3)c(-c3ccc4ccccc4c3)nn2)CC1 | PTGER3 (Homo sapiens, UniProt P43115) | antagonist, FLIPR | – | 10 µM | – | inhibition | 3.5%
O=c1c(O)cc([C@H]2Oc3cc(O)cc(O)c3C[C@H]2O)cc2c([C@H]3Oc4cc(O)cc(O)c4C[C@H]3O)cc(O)c(O)c12 | alpha-amylase | enzyme activity, inhibitor, DNS method | – | 250 µg/mL, added: soluble starch | – | inhibition | 84.5%
CN(C(=O)n1cnc(-c2ccc[n+]([O-])c2)c1)C1CCCCC1 | Gabbr1 (Rattus norvegicus, UniProt Q9Z0U4) | – | – | 10 µM | – | inhibition | 3.69%
CC(=O)c1ccc(-c2cccc(NC(=O)CCc3cccc4c3B(O)OC4)c2)cc1 | Cleavage and polyadenylation specificity factor subunit 3 (Cpsf3, Mus musculus, UniProt Q9QXK7) | pre-mRNA cleavage | mouse nuclear extract | 25 µM | relative to: DMSO | inhibition | 31%
O=C(Nc1cccc2c(=O)cc(-c3nnn[nH]3)oc12)c1ccc(OCCCCc2ccccc2)cc1 | Volume-regulated anion channel subunit LRRC8C, part LRRC8A IL1 chimera (LRRC8C, Homo sapiens, UniProt Q8TDW0) | ion current, inhibitor, whole-cell patch clamp | HCT LRRC8-/- cells, transfected | 10 µM, low ionic strength swelling, +100 mV | – | inhibition | 72.4% and 80.6% and 89.9%
Cc1c(-c2ccc(N3CCc4cccc(C(=O)Nc5nc6ccccc6s5)c4C3)nc2C(=O)O)cnn1CC12CC3(C)CC(C)(C1)CC(OCCNCC[C@H](O)CO)(C3)C2 | – | – | anaesthetised male beagle dogs | intravenous infusion, 0.3 mg/kg/min, 60 min | relative to: vehicle | cardiac output change | -20%
CC1=NN(c2cccc([N+](=O)[O-])c2)C(=O)C1=NNc1ccc(S(N)(=O)=O)cc1 | bovine α-glucosidase | enzyme activity, inhibitor, glucose oxidase | – | 50 µg/mL, added: maltose | – | inhibition | 45.2%
COc1ccc2c(c1)C(=O)N(CCCN1CCN(c3ccccc3OC)CC1)C2 | HTR1D | radioligand binding | – | concentration not given, added: [3H]5-CT | – | inhibition | 76.3%
CC(=O)N[C@H]1[C@@H](OP(=O)(O)OP(=O)(O)OC[C@H]2O[C@@H](n3ccc(=O)[nH]c3=O)[C@H](O)[C@@H]2O)O[C@H](CO)[C@H](O)[C@@H]1O | – | binding, MIDAS equilibrium dialysis LC-MS | A2AR-BRIL thermostabilized | concentration not given | relative to: no-protein control | log2 fold change | -0.188
CC(C)C[C@H](NC(=O)[C@@H](NC(=O)[C@@H](N)Cc1ccccc1)C(C)C)C(=O)N[C@@H](CC(=O)O)C(=O)O | MAOB (Homo sapiens, UniProt P27338) | inhibitor, fluorometric | – | 410 µM | – | inhibition | 21%
Cc1nn(-c2nc3c(F)cc(F)cc3s2)c(O)c1C(c1ccc(C(F)(F)F)cc1)c1c(C)nn(-c2nc3c(F)cc(F)cc3s2)c1O | Cgas (Mus musculus, UniProt Q8C6L5) | enzyme activity, inhibitor, pyrophosphatase-coupled | – | 12.5 µM, 1.5 h, mouse enzyme | – | inhibition | 82.1%
Cc1ccc(C(=O)Nc2ccc3ccccc3c2)o1 | Voltage-gated potassium channel KCNC1 (Kcnc1, Mus musculus, UniProt P15388) | ion current, inhibitor, whole-cell patch clamp | – | 10 µM | – | inhibition | 14.9% and 16.4% and 8.7% and 12.7% and 23.5%
O=C(O)Cn1cnc2ccccc2c1=O | Ubiquitin carboxyl-terminal hydrolase 16, ZnF-UBD domain (USP16, Homo sapiens, UniProt Q9Y5T5) | – | – | – | – | Kd | 456 µM
Cc1nn(-c2nc3c(F)cc(F)cc3s2)c(O)c1C(c1ccccc1C(F)(F)F)c1c(C)nn(-c2nc3c(F)cc(F)cc3s2)c1O | CGAS (Homo sapiens, UniProt Q8N884) | enzyme activity, inhibitor, pyrophosphatase-coupled | – | 200 µM, 1.5 h, added: HT-DNA | – | inhibition | 86.6%
O=C1c2ccccc2CCN1CCCCN1CCN(c2ccccn2)CC1 | HTR1D | radioligand binding | – | concentration not given, added: [3H]5-CT | – | inhibition | 68.9%
CC1=NNC(=O)C1=NNc1ccc(S(N)(=O)=O)cc1 | bovine α-glucosidase | enzyme activity, inhibitor, glucose oxidase | – | 100 µg/mL, added: maltose | – | inhibition | 38%
c1cncc(OC[C@H]2CN(CCN3CCc4ccccc43)CCO2)c1 | HTR1D | radioligand binding | – | concentration not given, added: [3H]5-CT | – | inhibition | 46.9%
Cc1nc(Nc2ncc(C(=O)Nc3c(C)cccc3Cl)s2)cc(N2CCN(CCO)CC2)n1 | ERBB2 (Homo sapiens, UniProt P04626) | kinase activity, inhibitor, Kinase-Glo MAX | – | 100 µM | – | inhibition | 95.5%

SMILES | target or system | test | test system | conditions | scale | quantity | result
CN(C)c1ccc2cc(C(=O)NS(=O)(=O)c3ccccc3-c3ccccc3)oc2c1 | kinase panel | – | – | 10 µM, 366 kinases | – | inhibition | ≤ 50%
CC1=NN(c2cc(Cl)ccc2Cl)C(=O)C1=NNc1ccc(S(N)(=O)=O)cc1 | bovine α-glucosidase | enzyme activity, inhibitor, glucose oxidase | – | 200 µg/mL, added: maltose | – | inhibition | 35.1%
CCCC[C@H](NC(=O)[C@H](C)c1c(C)[nH]c2ccc(O)cc12)c1ncc(-c2cc3ccccc3nc2OC)[nH]1 | MCHR1 (Homo sapiens, UniProt Q99705) | – | – | 10 µM | – | inhibition | 51%
CC1=NN(c2ccc(Cl)cc2)C(=O)C1=NNc1ccc(S(N)(=O)=O)cc1 | bovine α-glucosidase | enzyme activity, inhibitor, glucose oxidase | – | 50 µg/mL, added: maltose | – | inhibition | 35.9%
Cc1cc2c(cc1N1C(=O)c3cccc4c(CCCO)ccc(c34)C1=O)n(C)c(=O)n2C (racemic) | KAT2B (Homo sapiens, UniProt Q92831) | binding, BROMOscan binding | – | 100 nM | – | inhibition | 88%
COc1cc(C2=CCCc3c2ccc(OC)c3OCc2ccc([N+](=O)[O-])s2)cc(OC)c1OC | tubulin | colchicine binding | – | 5 µM, added: 5.0 µM [3H]colchicine | – | inhibition | 9.2 ± 5%
O=C(NO)c1ccc(CN2CCCCc3ccccc32)c(F)c1 | HRH3 | radioligand binding, radioligand displacement | – | 10 µM | – | inhibition | 52%
CC(C)C[C@H](NC(=O)C[C@H](O)[C@H](CC(C)C)NC(=O)[C@H](Cc1c[nH]cn1)NC(=O)CNC(=O)[C@@H](NC(=O)[C@H](C)NC(=O)[C@H](Cc1c[nH]c2ccccc12)NC(=O)[C@H](CCC(N)=O)NC(=O)[C@@H](Cc1ccccc1)NC(=O)COCCOCCNC(=O)CCC(C(=O)O)N1CCN(CC(=O)O)CCN(CC(=O)O)CCN(CC(=O)O)CC1)C(C)C)C(N)=O (some centres unmarked) [lutetium-177 labelled] | – | – | BALB/c nu/nu mice, stomach | intravenous, 50 pmol, 1 h, added: PA 300 µg | – | tissue uptake | 4 ± 2 %ID/g
CC1=NN(c2ccc(C)cc2)C(=O)C1=NNc1ccc(S(N)(=O)=O)cc1 | bovine α-glucosidase | enzyme activity, inhibitor, glucose oxidase | – | 50 µg/mL, added: maltose | – | inhibition | 32%
O=C(CN1CCO[C@@H](COc2cccnc2)C1)N1CCc2ccccc21 | HTR1D | radioligand binding | – | concentration not given, added: [3H]5-CT | – | inhibition | -5.2%
NC/C(=C\F)COc1cccc(Cn2c(=S)[nH]c(=O)c3[nH]cnc32)c1 | Amine oxidase [copper-containing] 3 (Rattus norvegicus, UniProt O08590) | – | rat adipose tissue | 0.1111 µM | – | inhibition | 94.8%
Cc1ncccc1OC[C@H]1CN(CCN2CCc3ccccc32)CCO1 | HTR1D | radioligand binding | – | concentration not given, added: [3H]5-CT | – | inhibition | 23.4%
Cn1cc(-c2ccc(-c3cncc(Cl)c3N3CCC4(CCNC4=O)CC3)cc2)cn1 | COLO 205 | gene expression, microarray, refers to: KITLG mRNA | – | concentration not given, 6 h | relative to: untreated cells | log2 fold change | 2.53
CC1=NNC(=S)NC(=O)C1/N=N/c1ccc(S(N)(=O)=O)cc1 (centres unmarked) | bovine α-glucosidase | enzyme activity, inhibitor, glucose oxidase | – | 100 µg/mL, added: maltose | – | inhibition | 31.3%
COc1cc2c(cc1OC)[C@H]1C[C@@H](O)[C@H](CC(C)C)CN1CC2 | MFS-type transporter SLC18B1 (SLC18B1, Homo sapiens, UniProt Q6NT16, F251A) | binder | – | radiolabeled protein variants | – | Kd | 204 µM
Cc1c(-c2ccccc2)oc2ccccc2c1=O | LRRC8A (Homo sapiens, UniProt Q8IWT6) | ion current, inhibitor | HEK293 | 30 µM, added: hypotonic stimulation | – | inhibition | ~35%
CC1=NN(c2cccc(C)c2)C(=O)C1=NNc1ccc(S(N)(=O)=O)cc1 | bovine α-glucosidase | enzyme activity, inhibitor, glucose oxidase | – | 10 µg/mL, added: maltose | – | inhibition | 28.682 ± 0.000696%
CCCCCC(=O)NCC(=O)O | – | binding, MIDAS equilibrium dialysis LC-MS | A2AR-BRIL thermostabilized | concentration not given | relative to: no-protein control | log2 fold change | -0.966
CC1=NN(c2ccccn2)C(=O)C1=NNc1ccc(S(N)(=O)=O)cc1 | bovine α-glucosidase | enzyme activity, inhibitor, glucose oxidase | – | 100 µg/mL, added: maltose | – | inhibition | 41.6%
CCN1/C(=C/C(C)=O)Sc2ccc(F)cc21 | L-type calcium channel Dihydropyridine site, rat | radioligand binding | – | concentration not given | – | inhibition | 0%

Some of these lines once more:
SMILES | target or system | test | test system | conditions | scale | quantity | result
Ic1cccc2cnccc12 | L-type calcium channel (rat) | dihydropyridine site binding, radioligand binding | – | 10 µM | – | inhibition | 6%
Cc1c(-c2ccccc2)oc2ccccc2c1=O | LRRC8A (Homo sapiens, UniProt Q8IWT6) | ion current, inhibitor | HEK293 | 30 µM, added: hypotonic stimulation | – | inhibition | ~35%
COc1ccc2c(c1)C(=O)N(CCCN1CCN(c3ccccc3OC)CC1)C2 | HTR1D | radioligand binding | – | concentration not given, added: [3H]5-CT | – | inhibition | 76.3%
CC1=NN(c2cccc([N+](=O)[O-])c2)C(=O)C1=NNc1ccc(S(N)(=O)=O)cc1 | bovine α-glucosidase | enzyme activity, inhibitor, glucose oxidase | – | 50 µg/mL, added: maltose | – | inhibition | 45.2%
Cc1nn(-c2nc3c(F)cc(F)cc3s2)c(O)c1C(c1ccc(C(F)(F)F)cc1)c1c(C)nn(-c2nc3c(F)cc(F)cc3s2)c1O | Cgas (Mus musculus, UniProt Q8C6L5) | enzyme activity, inhibitor, pyrophosphatase-coupled | – | 12.5 µM, 1.5 h, mouse enzyme | – | inhibition | 82.1%
